Experimental data of several laboratories.
± marks the error that the study gave. Values after ≈ are worked out from the molar mass of the structure shown.

Compound | test | test system | conditions | scale | quantity | value
C[C@@H](NC(=O)N1C(=O)[C@H](Cc2ccnc(N)c2)[C@H]1C(=O)O)C1CCCCC1 | UPLC-MS/MS | healthy adult Chinese volunteers, plasma | continuous intravenous infusion, 1.0 mg/kg/h, day 6 of 5-day infusion, mean | – | Vd | 0.568 L/kg
CCO[C@H]1CCN(Cc2c(OC)cc(C)c3[nH]ccc23)[C@H](c2ccc(C(=O)O)cc2)C1 | – | human mild hepatic impairment, plasma | oral, 200 mg single dose, geometric mean | – | total AUC(0-inf) | 52200 ng·h/mL
CN1C[C@H](COc2nccc3c(NCc4ccco4)cc(Cl)nc23)OC1=O | – | rat Crl:CD(SD) male | oral, 300 mg/kg, single dose | – | general condition | negative
N#Cc1ccc2c(c1)[C@H]1CCCN(C(=O)c3ccc4[nH]cnc4c3)[C@H]1C2 | – | human, female | 40 mg, day 7 | – | androstenedione level | 5.9 nmol/L
Cc1nc(-c2ccc(OCC(C)C)c(C#N)c2)sc1C(=O)O | – | human, plasma | oral, 10 mg, together with: verinurad 2.5 mg | reference: test over reference | geometric mean ratio Cmax | 89.7
C[C@H]1O[C@@H](O[C@H]2[C@@H](O)C[C@H](O[C@H]3[C@@H](O)C[C@H](O[C@H]4CC[C@@]5(C)[C@H](CC[C@@H]6[C@@H]5C[C@@H](O)[C@]5(C)[C@@H](C7=CC(=O)OC7)CC[C@]65O)C4)O[C@@H]3C)O[C@@H]2C)C[C@H](O)[C@@H]1O | refers to: Thirst | human | oral, 0.25 mg | – | participants with TEAE | 3.4%
CCO[C@H]1CCN(Cc2c(OC)cc(C)c3[nH]ccc23)[C@H](c2ccc(C(=O)O)cc2)C1 | – | PNH patients, active haemolysis | oral, 50 mg, 4 weeks, treatment | – | incidence of oropharyngeal pain | 0%
CN(CCCN1CCN(C(=O)CN2CCN(CC(=O)[O-])CCN(CC(=O)[O-])CCN(CC(=O)[O-])CC2)CC1)c1ccc2nccc(C(=O)NCC(=O)N3CC(F)(F)C[C@H]3C#N)c2c1.[68Ga+3] | – | mouse HT-1080-hFAP and HT-1080 xenografts, HT-1080 wild-type tumour | intravenous, 500 pmol, 4 h | – | uptake | 0.3 ± 0.1 %IA/g
CCCCC1=NC2(CCCC2)C(=O)N1Cc1ccc(-c2ccccc2S(=O)(=O)Nc2noc(C)c2C)c(COCC)c1 | – | healthy adult volunteers, plasma | oral, 50 mg, 14 days repeated dosing, fasted, crushed tablet | – | AUC(0-inf) | 11900 ng·h/mL
C[Si](C)(C)O[Si](C)(C)O[Si](C)(C)C | – | – | 2.7 to 6.3 µg/L, 20.8 °C | – | log KAW | 3.04
CC(=O)N[C@@H](CC(C)C)C(=O)N[C@H](C(=O)N[C@@H](Cc1ccccc1)C(=O)N[C@@]1(C)CCCC=CCCC[C@@](C)(C(=O)N[C@@H](CCC(N)=O)C(=O)N[C@@H](CC(C)C)C(=O)N[C@H](C(=O)N[C@@H](CO)C(N)=O)[C@@H](C)O)NC(=O)[C@H](Cc2c[nH]c3ccccc23)NC(=O)[C@H](Cc2ccc(O)cc2)NC(=O)[C@H](CCC(=O)O)NC1=O)[C@@H](C)O | circular dichroism | 10 mM phosphate buffer | 50 µM, pH 7.4 | – | helicity | 62%
O=C(O)C1CCN(c2nc(-c3ccccn3)nc3ccccc23)C1 (stereo not drawn) | – | Japanese Pharmacopoeia disintegration test solution 2 | pH 6.8 | – | kinetic solubility | 79 µg/mL (≈ 247 µM)
O=C(Nc1nc2cccc(-c3ccc(CN4CCS(=O)(=O)CC4)cc3)n2n1)C1CC1 | – | rheumatoid arthritis patients | oral, 75 mg once daily, 4 weeks, TEAE regardless of relatedness | – | incidence of dizziness | 0%
O=C(N[C@H](Cc1c[nH]c2ccccc12)C(=O)Nc1ccncc1)c1ccc(-c2ccc(F)c(Cl)c2)cc1F | – | Swiss Webster mouse, female, lung | oral, 50 mg/kg, 2 h, 20% HPβCD vehicle | – | concentration | 9.62 µM
CCCC1CCC(c2ccc(OCC)c(F)c2F)CC1 (stereo not drawn) | – | rat, fetus | 1000 ng/mL in perfusate, middle dose, mixture of 21 LCMs | – | median fetal accumulation | 0.209 ng/g
Cc1cccc(CNC(=O)c2cn(CCNC(=O)c3ccccc3Sc3c([N+](=O)[O-])ncn3C)c3cc4c(cc3c2=O)OC(F)(F)O4)n1 | – | Sprague-Dawley rat, male, plasma | intravenous, 5 mg/kg of parent drug | – | AUC(0-inf) | 266 ± 44 ng·h/mL
O=C1NCCc2nc(OCc3cccc(F)c3)ccc21 | modified Irwin test | Sprague-Dawley rat, male | oral, 100 mg/kg, 30 min | higher = stronger change | respiratory rate score | 0
CCN1/C(=C/C(C)=O)Sc2ccc(F)cc21 | – | cynomolgus monkey | oral, 30 mg/kg, 1 h post-dose | – | diastolic blood pressure | 74 ± 5 mmHg
CCc1cc(C(=O)NC)c2nccc(N3CCc4c(cc(Cn5ccnc5)cc4-c4cn(C)nc4C(F)(F)F)C3=O)c2c1 | – | Sprague Dawley rats | oral, 100 mg/kg twice daily, 7 days | – | serum TBA level | 19.8 ± 12.7 µmol/L
CC1(CNC(=O)c2ccc(-c3ccc(Br)cc3)cc2)NC(=O)NC1=O (stereo not drawn) | – | aqueous buffer | pH 7.4 | – | thermodynamic solubility | < 7.14 µM
CN1CCC[C@H](CN2c3ccccc3Sc3ccccc32)C1.Cl | – | female Wistar rat, lung | oral, 16 mg/kg | – | Cmax | 19100 ng/g

Excerpt of the above:
Compound | test | test system | conditions | scale | quantity | value
CN1C[C@H](COc2nccc3c(NCc4ccco4)cc(Cl)nc23)OC1=O | – | rat Crl:CD(SD) male | oral, 300 mg/kg, single dose | – | general condition | negative
N#Cc1ccc2c(c1)[C@H]1CCCN(C(=O)c3ccc4[nH]cnc4c3)[C@H]1C2 | – | human, female | 40 mg, day 7 | – | androstenedione level | 5.9 nmol/L
